Results from different studies.
Every numbered part comes from another study and shows a few of its results, in no order. Positions count from the first letter of the parent shown.

Series 1
Target: Histone acetyltransferase KAT6A, both winged helices, GST fusion (KAT6A, Homo sapiens, UniProt Q92794, residues 1-181)
Method: protein binding microarray
Form: double-stranded DNA, one strand shown
Matrix: in vitro
Concentration: not given
Notes: 8-mer, flanks averaged, mean of 2 arrays, mostly near background
Relative to: not given
Reading: higher = stronger binding
Construct (chain): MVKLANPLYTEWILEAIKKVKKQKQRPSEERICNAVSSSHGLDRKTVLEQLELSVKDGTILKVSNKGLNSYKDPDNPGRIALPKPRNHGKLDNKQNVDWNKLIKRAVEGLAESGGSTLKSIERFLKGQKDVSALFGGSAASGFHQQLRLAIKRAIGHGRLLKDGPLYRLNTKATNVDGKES
With `AGCTAACC` the E-score was -0.0817.
`ATTATGCG` has an E-score of 0.144.
The E-score of `ACATTGCT` is reported as -0.122.
For `GAAACTAC`, the E-score was -0.0101.
The E-score of `CCTGGCGC` is reported as 0.194.
With `CACCCGGC` the E-score was 0.245.

Series 2
Target: Interferon regulatory factor 7, full length, phosphomimetic (IRF7, Homo sapiens, UniProt Q92985, residues 1-503, S101K/S471D/S472D/S475D/S476D/S477D/S483D/S484D/S487D)
UniProt Q92985, sequence (whole entry, unmodified, looked up): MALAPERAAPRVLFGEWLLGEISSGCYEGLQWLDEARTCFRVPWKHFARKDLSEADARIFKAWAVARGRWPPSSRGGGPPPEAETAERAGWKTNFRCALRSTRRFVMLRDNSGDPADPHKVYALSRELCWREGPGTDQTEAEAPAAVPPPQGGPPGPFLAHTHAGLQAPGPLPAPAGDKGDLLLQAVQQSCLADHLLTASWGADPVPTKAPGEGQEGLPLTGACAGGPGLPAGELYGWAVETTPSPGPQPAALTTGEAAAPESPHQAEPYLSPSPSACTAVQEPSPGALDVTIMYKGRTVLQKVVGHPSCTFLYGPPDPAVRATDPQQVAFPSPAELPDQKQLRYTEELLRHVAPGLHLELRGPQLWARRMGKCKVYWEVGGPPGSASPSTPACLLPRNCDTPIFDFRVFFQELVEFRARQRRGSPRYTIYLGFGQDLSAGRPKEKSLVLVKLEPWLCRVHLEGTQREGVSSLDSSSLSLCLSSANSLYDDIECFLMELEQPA
Method: protein-binding microarray
Form: double-stranded DNA, one strand shown
Matrix: in vitro
Concentration: 250 nM
Notes: 60-bp whole probe
Together with: salmon DNA 0.4 mg/ml
Relative to: random background probes
Reading: higher = stronger binding
Shared flanks, not repeated: GCCTAGCAC … GTCTTGATTCGCTTGACGCTGCTG
For `TCATGGTCCTCTCTCTAACTGTGCTAG`, the log fluorescence was -0.157 z-score.
`TTAGGACTGGGTATGGGTTAGTGCTAG` gave a log fluorescence of -0.378 z-score.
`GACGATTTCGGGACTGGAGATGTGCTA` has a log fluorescence of 0.225 z-score.
For `GACTATGCCGACTTTGGAAGTGTGCTA`, the log fluorescence was 0.0292 z-score.
The log fluorescence of `TCATATCTCTGTTTTTGACTGTGCTAG` is reported as 0.89 z-score.

Mixed results
CCNB2: CCNB2, cyclin fold, Cln2 fusion (human)
CCNB1: CCNB1, cyclin fold, Cln2 fusion (human)
P1: MASTL docking peptide (human); PMIAKNLMCELDE; partner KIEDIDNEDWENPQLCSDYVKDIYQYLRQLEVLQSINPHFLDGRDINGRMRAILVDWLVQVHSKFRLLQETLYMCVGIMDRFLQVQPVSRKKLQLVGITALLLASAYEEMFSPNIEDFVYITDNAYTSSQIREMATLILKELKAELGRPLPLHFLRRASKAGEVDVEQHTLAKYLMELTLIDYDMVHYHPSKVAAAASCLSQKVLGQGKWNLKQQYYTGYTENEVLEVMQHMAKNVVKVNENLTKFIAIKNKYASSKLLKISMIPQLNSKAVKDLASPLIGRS
P2: CDC25A docking peptide (human); PPHRRRLLFACSP
`P1 C9T`: “normalised enrichment score” 0.847 (CCNB2; yeast growth competition, sequencing; yeast; weak parent motif; relative to: not given, higher = stronger binding).
`PhoQ, residues 284 288 289 292 302 303 SLCLSL` has a fold induction of 17 (PhoP, residues 12 14 15 18 19 SYFRT (Escherichia coli, UniProt P23836); Sort-seq, item: YFP reporter; E. coli; PhoQ-PhoP variant library, together with: 10 µM Mg2+; relative to: high Mg2+ state, higher = stronger signaling).
Under “normalised enrichment score”, `P1 M2H` is recorded as 0.768 (CCNB2; yeast growth competition, sequencing; yeast; weak parent motif; relative to: not given, higher = stronger binding).
For `P2 H3I`, “normalised enrichment score” read 0.755 (CCNB1; yeast growth competition, sequencing; yeast; weak parent motif; relative to: not given, higher = stronger binding).
Under “normalised enrichment score”, `P2 P2M` is recorded as 0.687 (CCNB1; yeast growth competition, sequencing; yeast; weak parent motif; relative to: not given, higher = stronger binding).

Excerpt of the above (series 2):
For `GACTATGCCGACTTTGGAAGTGTGCTA`, the log fluorescence was 0.0292 z-score.
The log fluorescence of `TCATATCTCTGTTTTTGACTGTGCTAG` is reported as 0.89 z-score.
